Published values gathered from unrelated publications.
Every numbered part comes from another study and shows a few of its results, in no order.

Set 1
Target: Ras GTPase-activating protein-binding protein 1, full length (G3BP1, Homo sapiens, UniProt Q13283)
Sequence of UniProt Q13283 (whole entry, looked up): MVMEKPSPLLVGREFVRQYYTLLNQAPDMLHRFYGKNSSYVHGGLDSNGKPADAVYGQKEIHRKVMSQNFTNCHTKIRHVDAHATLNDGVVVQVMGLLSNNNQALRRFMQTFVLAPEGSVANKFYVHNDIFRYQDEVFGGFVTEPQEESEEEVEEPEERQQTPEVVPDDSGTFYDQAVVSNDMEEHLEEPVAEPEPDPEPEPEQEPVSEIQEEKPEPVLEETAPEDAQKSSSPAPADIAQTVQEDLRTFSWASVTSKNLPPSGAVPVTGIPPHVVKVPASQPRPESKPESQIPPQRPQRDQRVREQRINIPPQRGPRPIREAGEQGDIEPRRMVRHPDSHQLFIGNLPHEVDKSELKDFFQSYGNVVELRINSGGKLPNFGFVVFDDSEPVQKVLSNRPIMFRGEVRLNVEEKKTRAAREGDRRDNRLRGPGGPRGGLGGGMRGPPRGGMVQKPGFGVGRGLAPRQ
Method: RNA Bind-n-Seq
Form: RNA
Matrix: in vitro
Tested at: 200 nM
Notes: whole 134-nt RNA, ends assumed
Added: 150 mM LiCl
Baseline: input library
Reading: higher = stronger binding
Library: 7-deaza-guanosine replaces G
Strand | log2 enrichment
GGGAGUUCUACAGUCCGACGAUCGUCCUGUGCUACACAUCGUAUGUACCGAAUCGGGUUUUUUUGGGUUUGGGAAAAAGGGAAAGUAUUAUGUUACGCCGUUCGGAUCUGCACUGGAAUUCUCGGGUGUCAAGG | -1.16
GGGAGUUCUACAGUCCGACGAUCUCAAGUCCUGUGCUACACAUCGUAUGUACCGAAUCGGGAGGGUGGGAAAAAGGGAAAGUAUUAUGUUACGCCGUUCGGAUCUGCACUUCCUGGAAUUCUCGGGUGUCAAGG | -0.233
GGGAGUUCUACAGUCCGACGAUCUAACUUUAGAGGAGGAUCUGAUGGAUAUGGCAGUGGACGUGGAUUUGGGGAUGGCUAUAAUGGGUAUGGAGGAGGACCUGGAGGUGACAAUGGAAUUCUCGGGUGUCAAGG | 0.147
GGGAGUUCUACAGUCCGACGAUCAGUCCUGUGCUACACAUCGUAUGUACCGAAUCAAAUUUUUAAAUUUAAAUUUUUAAAAAAGUAUUAUGUUACGCCGUUCGGAUCUGCACUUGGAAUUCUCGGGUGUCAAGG | -2.73
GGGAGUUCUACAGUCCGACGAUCUCCUGUGCUACACAUCGUAUGUACCGAAUCGGGGAAAAAGGGGAAAAAGGGGUUUGGGGAAAGUAUUAUGUUACGCCGUUCGGAUCUGCAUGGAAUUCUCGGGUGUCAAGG | -0.141
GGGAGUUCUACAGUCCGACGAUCUGGCCAAUAGCAUCCUUUUCCAGUCUUCCGGUCUGACAAAUGGAAUAAUAGAAGAAAAGGACAUACAUGAAGAAUUGCCAAAACGGAAAGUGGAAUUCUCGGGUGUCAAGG | -1.47
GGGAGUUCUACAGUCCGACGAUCGCAGGAAGUAAAAACAAAUGGAAAUGCUUCGGAUAGUGGCAGAGGUGGGGGUUGCUAAGGAAAGGGUGGGAUGGGAGUGGGUAAAGAGUUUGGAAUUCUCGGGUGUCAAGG | 0.133
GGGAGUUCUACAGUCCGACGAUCCUGUGCUACACAUCGUAUGUACCGAAUCGGAAAAAAAGGGGAAAAAAAGGGAAAAAAAGGGGAAAGUAUUAUGUUACGCCGUUCGGAUCUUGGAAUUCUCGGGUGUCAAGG | 0.0286
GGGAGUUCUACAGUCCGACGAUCCCUCAAGUCCUGUGCUACACAUCGUAUGUACCGAAUCGGGCGGGGCGGCGGGAAAGUAUUAUGUUACGCCGUUCGGAUCUGCACUUCCAGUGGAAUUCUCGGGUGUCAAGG | 0.052
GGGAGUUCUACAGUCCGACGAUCUGGCCCUGGUGGCAUGCGGGGAGGAAGAGGUGGCCUCAUGGAUCGUGGUGGUCCCGGUGGAAUGUUCAGAGGUGGCCUUGGUGGAGACAGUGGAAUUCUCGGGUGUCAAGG | 0.781
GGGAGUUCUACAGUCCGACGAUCGCAGGAAGUAAAAACAAAUGGAAAUGCUUCGGAUAGUGGCAGGGGUGGGGGUUGCUAAGGAAAGGGUGGGAUAAAAGUGGGUAAAGAGUUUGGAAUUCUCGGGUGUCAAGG | 0.3

Set 2
Target: RNA binding protein fox-1 homolog 2, RRM domain, GST-SBP tag (RBFOX2, Homo sapiens, UniProt O43251-10, residues 100-194)
Method: RNA Bind-n-Seq
Form: RNA
Matrix: in vitro
Tested at: 365 nM
Notes: natural RNA segment, single round, ends assumed
Baseline: no-protein control
Reading: higher = stronger binding
Strand | RBNS enrichment (R)
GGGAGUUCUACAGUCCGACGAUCACUAAAGAUUGAGUGAGGUCUCCCUGACUGAGGACUUCACCCCUUGAUUAAAGCAACUUGUGCUUCACUGCUGUCUGUGUGGCUCUGAGAGGGACUGGCAGAGGUGGACUUGGAAUUCUCGGGUGCCAA | 3.19
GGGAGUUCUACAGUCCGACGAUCUAUAUCAACCUUCGACUUUCUCAGUUCCUGCAUCUGCUCCCAUCUGUUCUUUCUUCCCAUCUAGGGCUAUUGCCCAAGGCCCAGAGAAACCAAUAAACUUGUACACGAGUUGGAAUUCUCGGGUGCCAA | 1.65
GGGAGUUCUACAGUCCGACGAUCGAUUUAUGUCCCUUCCCUCCCCCCUAAGUACAUCAGGGAACCUUUCCACACUAUAAAUGAUAUGACUACUGUUUGGGGUUUCUGGGCCCCCAUCCGUGUACGUAUGUGGCUGGAAUUCUCGGGUGCCAA | 0.713
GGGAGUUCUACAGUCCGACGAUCUUUCCAUAACCACAAGCCUGAGGCUGCAGCCUUUUAUUUAUGUUUUCCCUUUGGCUGUGACUGGGUGGGGCAGCAUGCAGCUUCUGAUUUUAAAGAGGCAUCUAGGGAAUUGGAAUUCUCGGGUGCCAA | 2.41
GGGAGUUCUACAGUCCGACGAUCUUGCCGAGGCUUCCUGCUAGCAACCACACUGAAGAGAUCGAUGCCUCCUUUCAAGCUAGCCAAGUUUUCUGCGAGCCUUCAGAGCUAGGAGGGCACCCUAGGCUCUGGGAUGGAAUUCUCGGGUGCCAA | 0.501
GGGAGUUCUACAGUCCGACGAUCCUUCUCAGGACAAUGAAUCCUUCCUGUUUUUCUUUUUAUGCCACACAGUGCAUUGUUUUUCUACCUGCUUGUCUUAUUUUUAGAAUAAUUUAGAAAAACAACAAAGGCUGUGGAAUUCUCGGGUGCCAA | 4.16
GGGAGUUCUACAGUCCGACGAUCCUAGCUAGCCUGGCUCAGUGAGCUGAUUAGCGUAUGGCAGGGGGCCUAGGAAGUACAGAGCAUCCUGCCUGUGCCUUGGAGCCUGUGCACUGCUUUUGUAUGUGAUCUUGUGGAAUUCUCGGGUGCCAA | 0.788
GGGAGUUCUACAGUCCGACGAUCAAUGAGCAAUUCUGGGAAUCACGCAGUGGGUUUUAAGGUAGUUAAUAUCUAUGGUAUAUUAAAAGGAGCAGUCAUCAUAUACUACUGCAUUUCCACUGAAGAGCCAAAAGUGGAAUUCUCGGGUGCCAA | 0.424
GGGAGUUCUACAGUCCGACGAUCCUUGGCAUGAAGGCAUGUUUUCCUUCUGGGGGUGGUGACAUGCCCUCCAGACGGCCUGCCAUCCAGCCCUCUGGCCUGAGGAAGACCCCCAUAGGCUCCGGACAGGCAGGUGGAAUUCUCGGGUGCCAA | 4.15
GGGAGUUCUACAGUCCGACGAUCGUUUUGUUUUGAGACAGUGUCUCACUUUGUAGCUGUGGCUAUCCUGGAACUCAAUCAGUAGAUGCCCAGAGAUGAUGUGCCUGCCUCUGCCGUCCAAUGCUGGGAUUGAAUGGAAUUCUCGGGUGCCAA | 1.85
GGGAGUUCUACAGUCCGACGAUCCUAAAGAGCUGUGUUUUCAUAGCAGGGGCUAUUGUACAGACAGUGAUAACCAAAUAGUAAUAUGCCAGUUCUUUCUUCUUUUUUUAGCUUCAGUAGUAGCUAAGCCAUUAUGGAAUUCUCGGGUGCCAA | 0.514
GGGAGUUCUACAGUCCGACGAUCCCUCUUGAUGAAAUGGACAUAUUAUAUAUUUCUGCCACCUGGAUUUUCCUGGAUAAUUUGAUGGAAUAUUUUAAGUUUCAGUAAAUCAGAACAAUAAACAAACUCAGAUAUGGAAUUCUCGGGUGCCAA | 0.464

Set 3
Target: RING finger protein unkempt homolog, zinc fingers 1-6, GST-SBP tag (UNK, Homo sapiens, UniProt Q9C0B0, residues 30-357)
Method: RNA Bind-n-Seq
Form: RNA
Matrix: in vitro
Tested at: not given
Notes: RNA with constant flanks, ends assumed
Baseline: input RNA pool
Reading: higher = stronger binding
Construct (chain): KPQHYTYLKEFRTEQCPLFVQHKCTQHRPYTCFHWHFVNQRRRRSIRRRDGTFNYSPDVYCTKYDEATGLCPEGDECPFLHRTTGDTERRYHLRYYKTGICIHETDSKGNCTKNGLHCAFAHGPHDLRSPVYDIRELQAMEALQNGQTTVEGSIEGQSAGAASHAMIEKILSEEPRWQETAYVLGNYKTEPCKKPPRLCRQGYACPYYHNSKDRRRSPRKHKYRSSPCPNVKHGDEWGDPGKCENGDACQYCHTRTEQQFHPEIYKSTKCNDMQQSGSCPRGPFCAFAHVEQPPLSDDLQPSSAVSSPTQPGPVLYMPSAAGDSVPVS
Strand | bound/input enrichment [ratio]
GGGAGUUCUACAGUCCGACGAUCACCACCGGAGAAUUCCUGGGGCGCACCGCCAAGAGCUGGGGUUUGAUCUUGCUCUUCUACCCCGUUUUUUAUGGGUUCCUGGCUGCACUCUUCUCAUUCACGAUGUGGGUUAUGCUUCAGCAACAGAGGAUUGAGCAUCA | 0.209
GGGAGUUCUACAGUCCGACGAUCGAUGAACCGGCCAUCAUUGUACAUCCAAAUUGGGCUGCAAAAAGUGGCAAGUUUGAUUGCCGCAUCAUGUCUUUGAGUGUCCUAUUGGACUACAGAUUAGAGGAUAAUAAAGAACAUUCACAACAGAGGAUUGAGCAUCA | 0.257
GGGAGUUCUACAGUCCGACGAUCCUGAAUAGCAAUAAAUAUUUUCCCAGCAGGGUUAGCAUAAAAGAAUCAUCUGUAGCAAAACCCGGAUCAGUGUGCCGUAGGAUUUAUAGAAUAUUUUCACAUGCCUAUUUUCAUCACCGGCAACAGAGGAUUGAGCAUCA | 7.51
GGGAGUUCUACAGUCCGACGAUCCUGGUGUGCCAGGAAAGUACUAAAUUUAAGAAUGUCUGGACAACUCAUUCCAGGUCACCUACCGCCUAUGAGAGAGGAAGAAUAUAUUUUGACAAUUAUCGGCGCUGUGUCAGCAGUGUUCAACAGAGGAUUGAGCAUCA | 0.427
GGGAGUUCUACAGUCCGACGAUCAUUUUCUUUAUGUGUGAAGACACAAAGUAUGGGGGAAGACAGCAAUCAAAACUAACUUUUUGCCGACCGCCAUUUCAUUUCUUUAAACUGUUUCAACGCCAAUAUGUAUUCUACAAAAGACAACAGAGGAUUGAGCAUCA | 0.257
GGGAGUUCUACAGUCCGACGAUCAGCUUGCCCAGUUGACCCGAAAAAUAGGACUUUUUAGAAUUGCAUUGCCACUUCUAAAAUCCCCGCAAUACUUAGAAUAACACAUCAGUGAGAUAAAUUUUACUCAAUUAUUUUACAAACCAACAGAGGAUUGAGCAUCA | 22.8
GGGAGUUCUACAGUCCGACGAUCUUGGAAGGACCAGAGCCUAAUCAACUGAAACCAUUAGUCAUACAGGCUAUGCCCACCCUAACCGAACUAAUGAAAGACCCCAGUGUAGUUGUUCGAGACACAACAGCGUGGACUGUGGGCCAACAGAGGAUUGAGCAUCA | 0.186
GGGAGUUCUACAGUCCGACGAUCUAUGGUUAUGAAAAGCCAGAGGAACGCUGGCUCCCUAUCCACACUGUGGAAACCAUCAUGAUCCGUGUCAUUUCUAUGCUGGCAGACCCUAAUGGAGACUCACCUGCUAAUGUUGAUGCUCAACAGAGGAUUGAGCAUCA | 0.77
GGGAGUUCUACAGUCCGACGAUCAGCAAAAAUCAAAUUAAAGUAGAUCUUGUAGAUGAGAAUUUUACAGAAUUAAGAGGAGAAACCGCAGGACCUCCAGACACACCGUAUGAAGGUGGAAGAUAUCAACUAGAGAUAAAAAUACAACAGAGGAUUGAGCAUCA | 2.86
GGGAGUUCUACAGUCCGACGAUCAAUGCAGUAGAGGCCAUUCAUAGAGCUGUGGAAUUCAAUCCUCAUGUGCCAAAAUACCUACCCGAAAUGAAAAGCUUAAUCCUACCCCCAGAACAUAUCCUGAAGAGAGGAGACAGUGAACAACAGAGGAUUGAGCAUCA | 0.628
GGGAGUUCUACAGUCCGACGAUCGUGAAAUACGCGUACUACGACACUGAACGCAUCGGAGUUGACCUGAUCAUGAAGACCUGCUUCCGCCCCAACAGAGUGAUUGGACUCUCAAGUGACUUGCAGCAAGUAGGAGGGGCAUCACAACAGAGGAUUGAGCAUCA | 0.0786

Set 4
Target: Histone acetyltransferase KAT6A, winged helix 2, GST fusion (KAT6A, Homo sapiens, UniProt Q92794, residues 85-181)
Method: protein binding microarray
Form: double-stranded DNA, one strand shown
Matrix: in vitro
Tested at: not given
Notes: 8-mer, flanks averaged, mean of 2 arrays, mostly near background
Baseline: not given
Reading: higher = stronger binding
Residues (chain): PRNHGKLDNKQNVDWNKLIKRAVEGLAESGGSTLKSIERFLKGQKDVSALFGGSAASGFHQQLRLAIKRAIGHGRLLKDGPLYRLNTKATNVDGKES
Strand | E-score
CTTCTCCC | 0.0948
AAATACGG | -0.0518
ACACTGTG | -0.0244
AGAAGCTA | 0.0214
ATGCGTGG | -0.0811
CATACTAA | 0.111
AGCTACGC | 0.143
ATGTAAAG | -0.0548
TAGCTACA | -0.14
AAGAGCAT | -0.0342
GTGCTGAA | -0.0299
AAGACTGT | -0.15
CGAAAACA | 0.0652
AGCCTTAA | -0.173
AATCCCGT | 0.0428
CAGCCTAC | 0.0295
ACACAGGA | -0.149
GTCTTAAA | -0.0826
ACTCAGCG | -0.0567
GGCGAGAC | 0.0214
AGCAGACA | -0.0484
CATTTATA | 0.0332
CAAAGTCA | -0.083
AAGAAGGA | -0.0612
GTGTCATA | -0.0402

A few entries again (set 4):
Strand | E-score
GGCGAGAC | 0.0214
AGCAGACA | -0.0484
CATTTATA | 0.0332
CAAAGTCA | -0.083
AAGAAGGA | -0.0612
